Measured values of several laboratories.
Compare with care: the assays were run in different laboratories. Numbers after ± are the reported error.
Cell line: HCT-116

The EC50 of `N=C(N)NCCC[C@@H](N)C(=O)N[C@@H](CCCNC(=N)N)C(=O)N[C@@H](Cc1c(F)c(F)c(F)c(F)c1F)C(=O)N[C@@H](CCCNC(=N)N)C(=O)N[C@@H]1CSCCS(=O)(=O)CCSC[C@@H](C(=O)N[C@H](CCCNC(=N)N)C(=O)N[C@@H](CC2CCCCC2)C(=O)N[C@@H](CCCNC(=N)N)C(=O)N2Cc3ccccc3C2C(N)=O)NC(=O)[C@H](Cc2cccc3ccccc23)NC(=O)[C@H](Cc2ccc(O)cc2)NC1=O` (stereo partly shown) is reported as 5.6 ± 2 µM.
`COC(=O)N[C@H]1CC[C@@H](Nc2cc(NCc3ccccc3F)n3ncc(C(C)C)c3n2)CC1`: “G2/M phase cells” 34% (1 µM, 24 h).
For `COc1ccc(NC(=O)CCc2nc3cc(Cl)ccc3[nH]c2=O)cc1`, the selectivity index was 15.3 (MTT; relative to: WI-38 IC50 over HCT-116 IC50).
For `O=C(Cn1c(=O)c(Cc2ccccc2)nc2ccccc21)NN1C(=O)c2ccccc2C1=O`, the mRNA level was 3.04 ± 0.032 fold (qRT-PCR, measured: BAX; concentration not given, 72 h; relative to: untreated).
With `COc1cc(CNC(=O)C[C@H](C)CCC=C(C)C)ccc1OCc1cn(-c2ccc([N+](=O)[O-])cc2)nn1` the growth percent was 32.1% (SRB; 10 µM, 48 h).
`O=C(CSc1nc2ccccc2s1)Nc1nonc1[N+](=O)[O-]` has a GI50 of 14.7 µM (cell growth or viability, ATP luminescence).
With `CC(=C(c1ccc(O)cc1)c1ccc(Cl)cc1)c1ccc(Cl)cc1` the GI50 was 0.62 µM (cell growth or viability, SRB).
For `COc1cc2c(Oc3ccc(Nc4nn(C)cc4C(=O)NC4CCCCC4)cc3F)ccnc2cc1OCCCCCCC(=O)NO`, the viability was roughly 80% (cell growth or viability, MTT; 10 nM, 72 h).
With `C=C1CC[C@@H]2[C@](C)(CO)[C@H](O)CC[C@@]2(C)[C@@H]1/C=C/C1=CCOC1=O` the inhibition was 0% (cell growth or viability, MTT; 20 µM, 48 h).
For `COc1cc(CNC(=O)C[C@H](C)CCC=C(C)C)ccc1OCc1cn(-c2cccc(Cl)c2)nn1`, the growth percent was 72.2% (SRB; 10 µM, 48 h).
`O=C(NCCc1cccc(F)c1)[C@@H]1C[C@@H](Sc2nc3ccccc3[nH]2)CN1Cc1cccc(Cl)c1` gave an effective concentration of 1 to 10 µM (cell invasion, inhibitor).
`COC(=O)Cn1c(=O)c(Cc2ccccc2)nc2ccccc21` gave a selectivity index of 0.845 (MTT; relative to: HCT-116 over normal colonocytes).
`[Cl][Au]1[P](c2ccccc2)(c2ccccc2)C[P](c2ccccc2)(c2ccccc2)[Au]([Cl])[P](c2ccccc2)(c2ccccc2)C[P]1(c1ccccc1)c1ccccc1` has an IC90 of 2.7 µM (cell growth or viability, trypan blue; 48 h).
For `NS(=O)(=O)c1ccc(-n2cc(Cn3c(=O)c(Cc4ccccc4)nc4ccccc43)nn2)cc1`, the mRNA level was 0.615 ± 0.004 fold (qRT-PCR, measured: VEGF; concentration not given, 72 h; relative to: untreated).
Under “nuclear β-catenin level”, `CCOP(=O)(OCC)OCCCCOC(=O)C(C)c1ccc(CC(C)C)cc1` (stereo not shown) is recorded as “decreased” (western blot; concentration not given; relative to: vehicle).
The esterified cholesterol of `CC1CCCN(CCCNC(=O)C2=Cc3sc4c(c3CS2)CCCC4)C1` (stereo not shown) is reported as 13.1 fold (20 µM, 24 h; relative to: vehicle).
With `CSc1nc(Nc2ccc(/C(C)=N/NC(=O)c3ccc([N+](=O)[O-])cc3[N+](=O)[O-])cc2)c(C#N)c(-c2ccccc2)n1` the necrotic cells was 0.19% (annexin V-FITC/PI flow cytometry; 1.14 µM, 24 h).
`COC(=O)CCNC(=O)CNC(=O)CCn1nc(Cc2ccccc2)c2ccccc2c1=O` — result for “late apoptotic cells”: 7.67% (0.32 µM, 48 h).
For `O=C(Cn1c(=O)c(Cc2ccccc2)nc2ccccc21)OCCNCCO`, the mRNA level was 4.114 ± 0.015 fold (qRT-PCR, measured: BAX; concentration not given, 72 h; relative to: untreated).
The growth percent of `COc1cc(CNC(=O)C[C@H](C)CCC=C(C)C)ccc1O` is reported as 94.1% (SRB; 10 µM, 48 h).
`CC(C)(C)CC(C)(C)Nc1c(-c2ccc3c(c2)OCO3)nc2cnccn12` has a cell migration of 20.6% (scratch; 50 µM, 24 h; relative to: untreated).
`N#Cc1c(F)c(F)c2nc(SCc3ccc4ccccc4c3)nc(N)c2c1F`: “cells in G1 phase” 25.2% (DAPI staining imaging; 2.56 µM, 24 h).
`COc1cc(CNC(=O)C[C@H](C)CCC=C(C)C)ccc1OCc1cn(-c2ccc(Cl)cc2Cl)nn1` gave a growth percent of 53.1% (SRB; 10 µM, 48 h).
The viability of `Cc1nc2ccc(Br)cc2c(=O)n1N` is reported as 48.2% (cell growth or viability, LDH; 200 µg/mL, 24 h).
Under “cells in G2/M phase”, `COCCSc1nc(N)c2c(F)c(C#N)c(F)c(Cl)c2n1` is recorded as 29.9% (DAPI staining imaging; 1.02 µM, 24 h).
`COc1ccc(NC(=O)N/N=C2\CC3(CCN(C)CC3)Oc3ccccc32)cc1` has an apoptotic cells of 47.3% (annexin V-FITC/PI; concentration not given, 24 h, Total apoptosis).
With `O=C(COc1ccc(/C=N/Nc2nc(-c3ccc(Cl)cc3)cs2)cc1)N1CCN(C(=O)COc2ccc(/C=N/Nc3nc(-c4ccc(Cl)cc4)cs3)cc2)CC1` the inhibition was 53.1% (cell growth or viability, SRB; 100 µM, 48 h).
`Cc1ccc(C(C)C)cc1.[Cl][Au].[Cl][Ru][Cl].c1ccc(P(CP(c2ccccc2)c2ccccc2)c2ccccc2)cc1` has an IC90 of 21.5 µM (cell growth or viability, trypan blue; 48 h).
